Published values collected from several papers.
A part holds a random share of what one study measured. Substitutions count along the parent as printed.

Block 1
Target: ABI1, truncated, D143A, DHFR fusion (Arabidopsis thaliana)
Technique: DHFR PCA, deep sequencing
Matrix: yeast
Notes: methotrexate growth selection, single substitutions
Added: (+)-ABA 1.4 µM
Relative to: wild-type fitted maximum
Reading: higher = stronger binding
Starting sequence: PYL1, truncated, DHFR fusion (Arabidopsis thaliana); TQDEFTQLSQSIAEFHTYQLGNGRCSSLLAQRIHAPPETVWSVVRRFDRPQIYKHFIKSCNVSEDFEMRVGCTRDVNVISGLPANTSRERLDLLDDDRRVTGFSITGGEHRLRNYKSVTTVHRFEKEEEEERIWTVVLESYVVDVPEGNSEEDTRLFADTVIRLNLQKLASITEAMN; partner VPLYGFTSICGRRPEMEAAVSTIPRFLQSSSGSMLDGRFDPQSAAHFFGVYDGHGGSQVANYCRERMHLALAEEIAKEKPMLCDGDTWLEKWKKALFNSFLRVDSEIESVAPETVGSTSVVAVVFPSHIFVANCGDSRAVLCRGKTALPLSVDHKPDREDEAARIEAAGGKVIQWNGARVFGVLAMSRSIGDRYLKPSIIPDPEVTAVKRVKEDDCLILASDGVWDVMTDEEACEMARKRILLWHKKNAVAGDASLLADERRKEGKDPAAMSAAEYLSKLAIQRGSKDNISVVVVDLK
| Substitution | relative binding score |
| --- | --- |
| I33E | -3.24% |
| E129A | 74.8% |
| D75C | 54.3% |
| G71D | -1.13% |
| D144N | 0.346% |
| L164G | 17.8% |
| T101P | 3.61% |
| E131I | 52.3% |
| I162Q | 7.02% |
| E38C | 26% |
| N22T | 63.4% |
| D95K | 1.81% |
| I105W | -4.29% |
| L138N | 7.78% |
| R74A | -2.19% |

Block 2
Target: Interferon regulatory factor 7, full length, phosphomimetic (IRF7, Homo sapiens, UniProt Q92985, residues 1-503, S101K/S471D/S472D/S475D/S476D/S477D/S483D/S484D/S487D)
Chain of UniProt Q92985 (whole entry, unmodified, looked up): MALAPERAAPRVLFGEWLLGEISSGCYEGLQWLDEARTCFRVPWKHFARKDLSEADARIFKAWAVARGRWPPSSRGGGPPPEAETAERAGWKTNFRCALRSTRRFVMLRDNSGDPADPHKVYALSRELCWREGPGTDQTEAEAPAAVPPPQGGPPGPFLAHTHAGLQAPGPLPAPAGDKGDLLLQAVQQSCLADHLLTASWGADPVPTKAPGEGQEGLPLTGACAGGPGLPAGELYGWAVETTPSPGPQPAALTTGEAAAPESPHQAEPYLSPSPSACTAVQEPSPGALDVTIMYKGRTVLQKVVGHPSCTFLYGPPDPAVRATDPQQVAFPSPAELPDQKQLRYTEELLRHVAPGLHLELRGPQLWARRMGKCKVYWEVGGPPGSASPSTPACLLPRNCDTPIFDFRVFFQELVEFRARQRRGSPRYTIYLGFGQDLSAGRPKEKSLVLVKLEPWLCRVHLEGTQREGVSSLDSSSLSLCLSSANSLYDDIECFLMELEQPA
Technique: protein-binding microarray
Molecule type: double-stranded DNA, one strand shown
Matrix: in vitro
Tested at: 250 nM
Notes: 60-bp whole probe
Added: salmon DNA 0.4 mg/ml
Relative to: random background probes
Reading: higher = stronger binding
Shared flanks, not repeated: GCCTAGCAC … GTCTTGATTCGCTTGACGCTGCTG
| Oligonucleotide | log fluorescence [z-score] |
| --- | --- |
| GACGGTTTCCTTATGCTGACGTGCTAG | 2.8 |
| TTAGGTTTCGGATTTCGGTTAGTGCTA | 10.7 |
| TCATTTTGGTTTTCTCTAACTGTGCTA | 1.88 |
| TTAGGTATCGGTTTCGGTAAGTGCTAG | 7.42 |
| CAAACACTAGTTTTCATTTTGTGCTAG | 2.64 |
| TTAGGAATGCTTATCCTTTAGTGCTAG | -0.00644 |
| GACGGACTGTACTTTCGGGACGTGCTA | -0.331 |
| GGGCCAGCAGCCAGGTGGAGGTGCTAG | -1.03 |
| TTAGGACTCCTTCTCCTTTAGTGCTAG | 0.452 |
| GACGGACTGCTGCTCCTGACGTGCTAG | -0.878 |

Block 3
Target: Histone acetyltransferase KAT6A, both winged helices, GST fusion (KAT6A, Homo sapiens, UniProt Q92794, residues 1-181)
Technique: protein binding microarray
Molecule type: double-stranded DNA, one strand shown
Matrix: in vitro
Tested at: not given
Notes: 8-mer, flanks averaged, mean of 2 arrays, mostly near background
Relative to: not given
Reading: higher = stronger binding
Construct (chain): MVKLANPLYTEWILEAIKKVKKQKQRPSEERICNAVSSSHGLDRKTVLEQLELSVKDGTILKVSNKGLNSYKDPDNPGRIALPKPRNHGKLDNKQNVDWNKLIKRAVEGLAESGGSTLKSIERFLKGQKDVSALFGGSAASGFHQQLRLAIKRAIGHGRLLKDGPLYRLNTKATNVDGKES
| Oligonucleotide | E-score |
| --- | --- |
| ACTGCTGC | -0.089 |
| GCTAACCA | -0.0786 |
| TAAGGCGA | -0.0669 |
| CCAGTAAC | -0.0203 |
| CCAGTAAA | 0.00592 |
| TGGCGCCA | 0.0922 |
| ATACTTAC | -0.0464 |
| CGAACTGA | -0.00209 |
| GCTCGTTA | -0.165 |
| ACCGACCC | 0.21 |
| AGGAAGGG | -0.229 |
| AACGGGAT | 0.159 |
| ATATTCGG | 0.00164 |
| CGGTGATC | 0.0792 |
| ACTGCTCC | -0.105 |
| TAGAGTCA | 0.0059 |
| GACAATTA | -0.0984 |
| GTAAAGAA | -0.0518 |
| GATGGACC | -0.0628 |
| GGGCATCA | -0.102 |
| AGTGATCG | -0.02 |
| CCACAAGC | -0.064 |
| AGTACCAA | -0.132 |
| CTCATAAC | -0.17 |
| CGTGGAGA | -0.0621 |

Block 4
Target: Centromere-binding protein 1, full length, His-tagged (CBF1, Saccharomyces cerevisiae, UniProt P17106, residues 1-351)
Chain of UniProt P17106 (whole entry, looked up): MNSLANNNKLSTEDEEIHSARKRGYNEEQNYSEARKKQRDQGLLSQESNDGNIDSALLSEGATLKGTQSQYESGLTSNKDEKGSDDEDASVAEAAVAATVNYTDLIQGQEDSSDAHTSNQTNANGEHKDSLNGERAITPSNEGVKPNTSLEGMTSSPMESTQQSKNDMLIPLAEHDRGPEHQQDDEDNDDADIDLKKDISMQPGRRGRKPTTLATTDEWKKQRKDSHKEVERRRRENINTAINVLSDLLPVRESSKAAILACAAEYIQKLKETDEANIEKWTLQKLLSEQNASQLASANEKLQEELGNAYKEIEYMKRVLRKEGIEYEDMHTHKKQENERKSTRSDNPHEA
Technique: competition protein-binding microarray
Molecule type: double-stranded DNA, one strand shown
Matrix: in vitro
Tested at: 2 µM
Notes: whole 60-bp probe, lowest competitor level
Added: Pho4 competitor, 0.05 µM
Reading: higher = stronger binding
| Oligonucleotide | fluorescence intensity [a.u.] |
| --- | --- |
| CTAACGAAGGTTTGCTTCGTGGGTGACAAGCCAAGTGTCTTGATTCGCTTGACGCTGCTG | 71 |
| CTCAGGTCGATGAGTCTCGTGGCCGCAAAGCTGATGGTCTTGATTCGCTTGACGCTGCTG | 111 |
| TTGCTTTGCAGCGACCACGTGGAACACTTGTCTAGTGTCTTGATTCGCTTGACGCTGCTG | 1180 |
| TTGTTCTTGATCGGCAGCATGACAAGGCTCTAAGTAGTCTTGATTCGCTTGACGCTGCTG | 66.2 |
| AAATTACTAAGTTGTCACTATACTTACCCCGTATGAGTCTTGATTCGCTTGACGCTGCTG | 76 |
| AAAGCGGTAATTTGAAGTGTGGGTGCAGATATCTATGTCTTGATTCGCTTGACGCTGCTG | 79.8 |
| CATACCCAACCTTGGTTGGTGGGTGAAGATATTTGTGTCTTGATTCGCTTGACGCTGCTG | 62.4 |
| CATACCCAACCTTGTACTGTGGGTGAAGATATTTGTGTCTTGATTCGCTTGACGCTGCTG | 73.1 |
| TTGAAGGTGAAGCCTTCCGTGCAAAATGCGAAAAAAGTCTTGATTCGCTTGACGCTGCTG | 67.5 |
| ATTGACATAATCAGAAACGTGCTTTATCAATTGTGCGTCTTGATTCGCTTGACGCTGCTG | 202 |
| CTAACGAAGGTTTGGCTGGTGGGTGACAAGCCAAGTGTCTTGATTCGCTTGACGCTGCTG | 45 |
| TGCGCAACAACTTGACACGTGTTTTTATGTCTAGAAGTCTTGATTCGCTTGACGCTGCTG | 2220 |
| CTAACGAAGGTTTGGCACGTGTTTTACAAGCCAAGTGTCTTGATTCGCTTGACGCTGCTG | 1800 |
| TTTGGCCTCAAATGACACATGCAATCTCGAACAGTTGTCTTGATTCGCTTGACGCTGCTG | 90.1 |
| TGCGCAACAACTTTTCACGTGTAATTATGTCTAGAAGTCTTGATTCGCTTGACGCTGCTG | 875 |

Block 5
Target: RNA binding protein fox-1 homolog 2, RRM domain, GST-SBP tag (RBFOX2, Homo sapiens, UniProt O43251-10, residues 100-194)
Technique: RNA Bind-n-Seq
Molecule type: RNA
Matrix: in vitro
Tested at: 365 nM
Notes: natural RNA segment, single round, ends assumed
Relative to: no-protein control
Reading: higher = stronger binding
Construct (chain): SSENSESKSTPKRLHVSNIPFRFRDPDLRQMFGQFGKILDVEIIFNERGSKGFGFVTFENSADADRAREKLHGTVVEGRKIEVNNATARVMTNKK
| Oligonucleotide | RBNS enrichment (R) |
| --- | --- |
| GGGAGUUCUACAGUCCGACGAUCUCCACACACACACACACCCCUCUUGCCCAGGUGGCCUCUUGUCCUCUGCUCUUGACUCUGCCAGCCCUGAUUUUCUGGGCUGGGCUCACUGGCUCUCAAUGCCACCUUCGUGGAAUUCUCGGGUGCCAA | 0.562 |
| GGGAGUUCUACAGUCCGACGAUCUGGAAAUUAUUUAAUUAUUUUAAAACGUACACACUUUUCUUGUAAAUAUGUCACAUCUGAGUUCAAAAAAAUUACUUUGAAUACCUUAAUAUUUGCUGCAUUUUUUUCCGUGGAAUUCUCGGGUGCCAA | 0.546 |
| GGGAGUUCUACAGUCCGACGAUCAUAAAAAAAUAAUGCUGUUAAACAGGAGUUGACCUUCAUUUAGUUGAUGUAAUACAUAGCUGUAUGGGGUUUUUUUUAGUAAGUUCUUUGAGCAUAAUUCACUUUAAAGUUGGAAUUCUCGGGUGCCAA | 0.957 |
| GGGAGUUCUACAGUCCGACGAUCUUCUAAAUUGUAGGAGCAGGAUGGAAAUACUUUGCUGCCCUUGCCAUCUUUUAGGAUGGGCCCCCAGGAGACUGAGGUCUUCCUGGGCCCUCAUUGCUGCUUAUCGUACCUGGAAUUCUCGGGUGCCAA | 0.223 |
| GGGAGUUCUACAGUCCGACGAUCUUCUGUAAAGCCACUUGUCUGUGUGACACUGAGAUAAAAUAGGUCUUUGUUAUUUUCAACUGUUCUAUGCUGUGACGAUGAGGAGGAGAUGUCUGUUGGAUUCAUGUCUUUGGAAUUCUCGGGUGCCAA | 0.445 |
| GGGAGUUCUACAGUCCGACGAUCGCAUCAAGAACUCUUAGCACCAUCCUACUGCUGUCGCCACCACCCUGUCCGUCAGAGACUUCUCAAUCCAGUGGCAGUUGGGAUGGGGUUAUGAGGCCUGUCAGGUCUAUUGGAAUUCUCGGGUGCCAA | 1.6 |
| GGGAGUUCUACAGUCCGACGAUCUUAUCAAAUACACAAAGAUUUUUUUGCAUAUGUUUCCUUCGUUUAAAACCAGUUUCAUAAUUGGUUGUAUAUGUAGACUUGGAGUUUUAUCUUUUUACUUGUUGCCAUGGUGGAAUUCUCGGGUGCCAA | 0.711 |
| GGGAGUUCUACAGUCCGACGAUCAACUGUGUUUCUGAAGUUUGUGCACAUUUUUCUUCACUGUAAUGUUAUUUUACAGCUGUUUGUUAAAAUAGUGAAUAAUUUAAUGAUCCUAAAAGUAACAGGUUUCGUGUUGGAAUUCUCGGGUGCCAA | 0.415 |
| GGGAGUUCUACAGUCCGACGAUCCUGAAUCAUCUAAAGCUAGGUCACUGUGUUGUGUAAAGGGGAGACAGGACUGACAGCAUCCCUUAACAUAAUAUUCUCAUGGUUCUCUGGGUUGGAAGAAAUAUAACUGUUGGAAUUCUCGGGUGCCAA | 0.722 |
| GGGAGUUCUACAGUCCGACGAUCAGCUGGCGGGCUGGCCUUCUGGACCCUGGCUUCUCCCCACUGUAACGCCUGUUACACACAAACUGUUGUGGGUUCCUGCCAGGCUUGAAGAAAAUGAUCUGAAUUUUUUCUGGAAUUCUCGGGUGCCAA | 0.633 |
| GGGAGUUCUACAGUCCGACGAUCACUUUUAUGGCGUUAAUUUCCUGCCACUACAGAUCUUUUGAAGAUUGCUGGAAUACUGGUGUCUGUUAGAAUGCUUCAGACUACAGAUGUAAUUAAAGGCUUUUCUUAAUUGGAAUUCUCGGGUGCCAA | 1.03 |
| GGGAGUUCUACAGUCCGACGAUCGCUCAGGAAGUCUUUGGGGAAACUAAUGACCUGCAAAUUUGAAGUGGGUGACUGGCUUGGUGGCUUCUGCUAGCCAUCUAAGGCUGGAUAAGGAACUUCCCAGAUGAUUAUGGAAUUCUCGGGUGCCAA | 0.395 |

Block 6
Target: Sal-like protein 4, full length isoform B (SALL4, Homo sapiens, UniProt Q9UJQ4-2, residues 1-616)
Technique: universal PBM
Molecule type: double-stranded DNA, one strand shown
Matrix: in vitro
Tested at: not given
Notes: 8-mer, flanks averaged, mean of replicates
Reading: higher = stronger binding
| Oligonucleotide | E-score |
| --- | --- |
| ACGGTACT | -0.0435 |
| CGGATACG | -0.265 |
| AAATGAGA | 0.182 |
| AGGTCGTA | 0.101 |
| CATGACAA | 0.0147 |
| ATGGCCTA | 0.0173 |
| ATTGACCA | 0.0911 |
| ATGACCTA | 0.156 |
| GCTACGCC | -0.258 |
| GGGTCAAA | -0.133 |
| GTTATAAA | 0.377 |
| ACTCCGTC | -0.0886 |
| ATCCAGAA | 0.159 |
| CTACGATA | 0.154 |
| ATCTTGTC | 0.071 |
| CGCGATAC | -0.0484 |
| AGGACCAT | -0.047 |
| ACCTACCG | -0.153 |
| AGTTTTTA | 0.312 |

A few entries again (block 3):
| Oligonucleotide | E-score |
| --- | --- |
| AGTACCAA | -0.132 |
| CGTGGAGA | -0.0621 |
| GTAAAGAA | -0.0518 |
| GCTCGTTA | -0.165 |
| AGGAAGGG | -0.229 |
